Results from different studies.
A part holds a random share of what one study measured.

Series 1
Target: RNA binding protein fox-1 homolog 2, RRM domain, GST-SBP tag (RBFOX2, Homo sapiens, UniProt O43251-10, residues 100-194)
Technique: RNA Bind-n-Seq
Form: RNA
Medium: in vitro
Tested at: 365 nM
Notes: natural RNA segment, single round, ends assumed
Relative to: no-protein control
Direction: higher = stronger binding
All sequences stand within: GGGAGUUCUACAGUCCGACGAUC … UGGAAUUCUCGGGUGCCAA
Target sequence (chain): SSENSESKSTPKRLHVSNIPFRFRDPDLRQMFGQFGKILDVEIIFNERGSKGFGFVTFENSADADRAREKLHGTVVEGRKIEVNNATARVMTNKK
`AUCCAGAAGAGUAAGAAGAGUAAAUUGUUUCCAUUAUUUUAUCUAAAUAGCAUAAGCAUAUGCUUUUAACUCAUCAUAUUUUUAGUAGUGCUUUUUAGUUUUGUAUAUCA` — result for “RBNS enrichment (R)”: 0.974.
`AUCUCUAAGCCUUUUAAUAAAACUGUACUGAAGUUUUUAUCAGCUAAGAGUCAGUUCUUCAAUUCUGGUCCCAUUAUCUCCAAGUGCCUUUUUUACAGUGACAACAGACA`: “RBNS enrichment (R)” 0.589.
`GGAGACAGCAAGCAAAGCCAGCAGGACAUGAAGUUGCUAUUAAAUGGACUUCGUGAUUUUUGUUUUGCACUAAAGUUUCUGUGAUUUAACAAUAAAAUUCUGUUAGCCAG`: “RBNS enrichment (R)” 0.565.
For `CGGGAGAUUGAGUCUGCACAUCACCAGUUGCCAUGUUCACUGGGCCAGUGCCCACCCGUCCACGUUGCUGACAUUGCCACGCUUUGAGGUGUGGUGGUCGCUGGGACCCG`, “RBNS enrichment (R)” read 0.396.
For `AUCUAAGUGCCUAGCCCUUCCACCCACCCGCCGUCCACCUCGUCCAUCGGGGACACAGAGUGGCCAGGGCACCCCACCCUUGUCUCCGUGUACCCUAGCUCCCCAUCACU`, “RBNS enrichment (R)” read 0.257.
Under “RBNS enrichment (R)”, `GUUGAGAAAGUUGAGGAAUUUCCUCUACCACCUUUGUUGCUUGAAGAAAAACAUGUCUUUUCAAAAUGAGAGGCUUUCAUUGAAGAAAAGAAAAAAACAACAGUUAAAAG` is recorded as 0.517.

Series 2
Target: Ras GTPase-activating protein-binding protein 1, C-terminal RGG region (G3BP1, Homo sapiens, UniProt Q13283)
UniProt Q13283, sequence (whole entry, looked up): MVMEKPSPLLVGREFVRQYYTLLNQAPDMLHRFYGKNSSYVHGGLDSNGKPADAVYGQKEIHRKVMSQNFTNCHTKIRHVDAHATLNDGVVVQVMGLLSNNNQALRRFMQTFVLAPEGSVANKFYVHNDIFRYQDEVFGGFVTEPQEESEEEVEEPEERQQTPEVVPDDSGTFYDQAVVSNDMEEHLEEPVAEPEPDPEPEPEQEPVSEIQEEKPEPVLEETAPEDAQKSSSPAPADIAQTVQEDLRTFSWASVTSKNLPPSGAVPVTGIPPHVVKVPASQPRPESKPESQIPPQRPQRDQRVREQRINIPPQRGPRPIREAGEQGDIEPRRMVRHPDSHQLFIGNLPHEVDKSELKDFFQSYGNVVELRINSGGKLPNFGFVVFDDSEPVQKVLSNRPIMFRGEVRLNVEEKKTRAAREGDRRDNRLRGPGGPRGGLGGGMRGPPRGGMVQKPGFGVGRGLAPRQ
Technique: RNA Bind-n-Seq
Form: RNA
Medium: in vitro
Tested at: 1 µM
Notes: whole 134-nt RNA, ends assumed
With: 150 mM KCl
Relative to: input library
Direction: higher = stronger binding
All sequences stand within: GGGAGUUCUACAGUCCGACGAUC … UGGAAUUCUCGGGUGUCAAGG
For `UGGCCCUGGUGGCAUACGGGGAGGAAGAGGUGGCCUCAUGGAUCGUGGUGGUCCCGGUGGAAUGUUCAGAGGUGGCCGUGGUGGAGACAG`, the log2 enrichment was 1.87.
For `UAACUUUAGAGGAGGAUCUGAUGGAUAUGGCAGUGGACGUGGAUUUGGGGAUGGCUAUAAUGAGUAUGGAGGAGGACCUGGAGGUGGCAA`, the log2 enrichment was -0.83.
With `ACAGAGGGUUUGGUGGACGUUAUUCUCUAUCAUCAACCCGAUGACAAAAAGAAGAAUCGGGGGUUCUGCUUCCUUGAAUAUGAGGAUCAC` the log2 enrichment was -1.54.
`UCACCUGUUUACAGUGAAUCAGACGUCCCAAUAGAUGUGGAGACGGUCACAUCAACGCCUAUGCCACUCUAUGACAAUCAGAAGGCACGC` has a log2 enrichment of -1.84.
With `UCAAGUCCUGUGCUACACAUCGUAUGUACCGAAUCGGUUUGGUUUGGGUUUGGGAAAGUAUUAUGUUACGCCGUUCGGAUCUGCACUUCC` the log2 enrichment was -1.11.

Series 3
Target: Interferon regulatory factor 7, full length, phosphomimetic (IRF7, Homo sapiens, UniProt Q92985, residues 1-503, S471D/S472D/S475D/S476D/S477D/S483D/S484D/S487D)
Technique: protein-binding microarray
Form: double-stranded DNA, one strand shown
Medium: in vitro
Tested at: 2200 nM top
Notes: 60-bp whole probe
With: salmon DNA 0.4 mg/ml
Relative to: random background probes
Direction: higher = stronger binding
All sequences stand within: GCCTAGCAC … GTCTTGATTCGCTTGACGCTGCTG
Construct (chain): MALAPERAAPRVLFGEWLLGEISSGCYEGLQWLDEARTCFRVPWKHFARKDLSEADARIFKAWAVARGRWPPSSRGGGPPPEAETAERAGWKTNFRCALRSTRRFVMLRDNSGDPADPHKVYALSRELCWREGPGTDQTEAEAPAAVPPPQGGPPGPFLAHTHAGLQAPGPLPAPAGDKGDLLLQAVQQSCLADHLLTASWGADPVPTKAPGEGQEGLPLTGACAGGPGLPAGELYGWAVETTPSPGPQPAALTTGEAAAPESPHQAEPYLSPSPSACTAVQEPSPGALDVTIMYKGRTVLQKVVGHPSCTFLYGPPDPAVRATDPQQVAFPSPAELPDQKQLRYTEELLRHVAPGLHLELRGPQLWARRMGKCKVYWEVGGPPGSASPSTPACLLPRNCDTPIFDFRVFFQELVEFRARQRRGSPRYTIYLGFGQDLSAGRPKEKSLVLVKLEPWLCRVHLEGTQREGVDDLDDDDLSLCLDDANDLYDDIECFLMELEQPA
Under “fitted relative affinity”, `GACAGTTTCGGGTATCGGGACGTGCTA` is recorded as 7.6 z-score.
`GACGGTTCCGGTTTTGGGACGTGCTAG`: “fitted relative affinity” 2.63 z-score.
Under “fitted relative affinity”, `GACGGGCTGGGGACTGGGGACGTGCTA` is recorded as -0.828 z-score.
Under “fitted relative affinity”, `TTAGGTTTGGGGTATCGGTTAGTGCTA` is recorded as 0.503 z-score.
`TCACAAATGCCCTCTCCAACTGTGCTA`: “fitted relative affinity” 0.771 z-score.

Single results of other studies
`PhoQ, residues 284 288 289 292 302 303 GANMMA` has a fold induction of 5.16 (PhoP, residues 12 14 15 18 19 TTLRV (Escherichia coli, UniProt P23836); Sort-seq, refers to: YFP reporter; E. coli; PhoQ-PhoP variant library, with: 10 µM Mg2+; relative to: high Mg2+ state, higher = stronger signaling).

A few entries again (series 3):
Under “fitted relative affinity”, `TTAGGTTTGGGGTATCGGTTAGTGCTA` is recorded as 0.503 z-score.
Under “fitted relative affinity”, `GACGGGCTGGGGACTGGGGACGTGCTA` is recorded as -0.828 z-score.
